Published values collected from several papers.
Every numbered part comes from another study and shows a few of its results, in no order. “And” joins repeats or separate records; there may be more than shown.
Chain of UniProt P11802 (whole entry, looked up): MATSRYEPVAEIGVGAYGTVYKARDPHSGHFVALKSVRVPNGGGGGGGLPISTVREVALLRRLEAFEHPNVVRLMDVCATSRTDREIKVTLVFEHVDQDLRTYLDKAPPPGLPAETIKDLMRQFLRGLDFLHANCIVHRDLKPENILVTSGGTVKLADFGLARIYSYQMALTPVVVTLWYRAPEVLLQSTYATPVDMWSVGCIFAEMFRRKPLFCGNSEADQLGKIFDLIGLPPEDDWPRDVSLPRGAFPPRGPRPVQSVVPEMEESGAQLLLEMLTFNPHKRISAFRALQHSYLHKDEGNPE
Chain of UniProt P49674 (whole entry, looked up): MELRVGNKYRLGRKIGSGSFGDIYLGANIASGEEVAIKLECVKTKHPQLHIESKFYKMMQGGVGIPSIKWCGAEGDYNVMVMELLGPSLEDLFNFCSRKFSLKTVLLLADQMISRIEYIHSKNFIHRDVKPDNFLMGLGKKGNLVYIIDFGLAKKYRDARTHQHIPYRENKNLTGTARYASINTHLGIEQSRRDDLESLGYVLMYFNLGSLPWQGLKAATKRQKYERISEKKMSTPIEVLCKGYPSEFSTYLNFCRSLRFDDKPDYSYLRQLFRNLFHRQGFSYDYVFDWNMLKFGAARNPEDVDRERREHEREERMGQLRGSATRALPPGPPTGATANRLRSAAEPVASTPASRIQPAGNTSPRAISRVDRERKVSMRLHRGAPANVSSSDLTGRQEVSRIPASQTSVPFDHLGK
Chain of UniProt Q15418 (whole entry, looked up): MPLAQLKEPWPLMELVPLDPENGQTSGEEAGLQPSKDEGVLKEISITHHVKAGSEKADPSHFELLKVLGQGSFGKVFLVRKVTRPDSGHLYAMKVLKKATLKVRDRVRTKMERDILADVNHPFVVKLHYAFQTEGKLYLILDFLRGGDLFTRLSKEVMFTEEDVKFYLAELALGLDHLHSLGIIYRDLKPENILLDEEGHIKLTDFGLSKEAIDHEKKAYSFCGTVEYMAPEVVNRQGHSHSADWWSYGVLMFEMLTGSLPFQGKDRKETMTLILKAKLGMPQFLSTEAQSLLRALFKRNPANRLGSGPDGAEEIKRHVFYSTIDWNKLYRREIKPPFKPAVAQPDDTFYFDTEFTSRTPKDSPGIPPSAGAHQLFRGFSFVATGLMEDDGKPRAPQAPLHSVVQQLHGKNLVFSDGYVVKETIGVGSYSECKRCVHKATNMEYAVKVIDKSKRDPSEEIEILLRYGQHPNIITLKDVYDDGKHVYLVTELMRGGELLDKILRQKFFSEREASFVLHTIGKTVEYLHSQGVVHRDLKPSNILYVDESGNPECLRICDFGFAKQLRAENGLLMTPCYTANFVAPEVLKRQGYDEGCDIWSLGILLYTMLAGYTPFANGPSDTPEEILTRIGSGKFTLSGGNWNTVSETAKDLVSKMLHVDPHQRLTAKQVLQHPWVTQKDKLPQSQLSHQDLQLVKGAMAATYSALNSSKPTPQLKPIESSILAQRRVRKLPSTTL
Chain of UniProt Q9NYY3 (whole entry, looked up): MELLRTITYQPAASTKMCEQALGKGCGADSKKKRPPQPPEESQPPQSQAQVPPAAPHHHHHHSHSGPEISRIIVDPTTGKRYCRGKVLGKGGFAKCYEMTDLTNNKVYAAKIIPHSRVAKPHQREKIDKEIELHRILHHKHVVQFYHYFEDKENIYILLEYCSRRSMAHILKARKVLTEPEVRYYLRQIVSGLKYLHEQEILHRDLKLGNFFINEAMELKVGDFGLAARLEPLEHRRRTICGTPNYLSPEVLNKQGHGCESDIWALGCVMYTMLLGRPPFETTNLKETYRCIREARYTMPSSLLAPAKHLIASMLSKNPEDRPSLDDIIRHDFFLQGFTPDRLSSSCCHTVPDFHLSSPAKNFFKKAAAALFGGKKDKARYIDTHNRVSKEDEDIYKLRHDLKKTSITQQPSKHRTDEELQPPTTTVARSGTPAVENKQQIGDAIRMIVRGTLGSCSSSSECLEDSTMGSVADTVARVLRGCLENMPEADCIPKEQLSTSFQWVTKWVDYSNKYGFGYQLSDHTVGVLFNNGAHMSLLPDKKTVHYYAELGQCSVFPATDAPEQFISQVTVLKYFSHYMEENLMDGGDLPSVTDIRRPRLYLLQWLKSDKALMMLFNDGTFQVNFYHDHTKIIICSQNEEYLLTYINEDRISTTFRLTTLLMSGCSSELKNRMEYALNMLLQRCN
Chain of UniProt Q8N4C8 (whole entry, looked up): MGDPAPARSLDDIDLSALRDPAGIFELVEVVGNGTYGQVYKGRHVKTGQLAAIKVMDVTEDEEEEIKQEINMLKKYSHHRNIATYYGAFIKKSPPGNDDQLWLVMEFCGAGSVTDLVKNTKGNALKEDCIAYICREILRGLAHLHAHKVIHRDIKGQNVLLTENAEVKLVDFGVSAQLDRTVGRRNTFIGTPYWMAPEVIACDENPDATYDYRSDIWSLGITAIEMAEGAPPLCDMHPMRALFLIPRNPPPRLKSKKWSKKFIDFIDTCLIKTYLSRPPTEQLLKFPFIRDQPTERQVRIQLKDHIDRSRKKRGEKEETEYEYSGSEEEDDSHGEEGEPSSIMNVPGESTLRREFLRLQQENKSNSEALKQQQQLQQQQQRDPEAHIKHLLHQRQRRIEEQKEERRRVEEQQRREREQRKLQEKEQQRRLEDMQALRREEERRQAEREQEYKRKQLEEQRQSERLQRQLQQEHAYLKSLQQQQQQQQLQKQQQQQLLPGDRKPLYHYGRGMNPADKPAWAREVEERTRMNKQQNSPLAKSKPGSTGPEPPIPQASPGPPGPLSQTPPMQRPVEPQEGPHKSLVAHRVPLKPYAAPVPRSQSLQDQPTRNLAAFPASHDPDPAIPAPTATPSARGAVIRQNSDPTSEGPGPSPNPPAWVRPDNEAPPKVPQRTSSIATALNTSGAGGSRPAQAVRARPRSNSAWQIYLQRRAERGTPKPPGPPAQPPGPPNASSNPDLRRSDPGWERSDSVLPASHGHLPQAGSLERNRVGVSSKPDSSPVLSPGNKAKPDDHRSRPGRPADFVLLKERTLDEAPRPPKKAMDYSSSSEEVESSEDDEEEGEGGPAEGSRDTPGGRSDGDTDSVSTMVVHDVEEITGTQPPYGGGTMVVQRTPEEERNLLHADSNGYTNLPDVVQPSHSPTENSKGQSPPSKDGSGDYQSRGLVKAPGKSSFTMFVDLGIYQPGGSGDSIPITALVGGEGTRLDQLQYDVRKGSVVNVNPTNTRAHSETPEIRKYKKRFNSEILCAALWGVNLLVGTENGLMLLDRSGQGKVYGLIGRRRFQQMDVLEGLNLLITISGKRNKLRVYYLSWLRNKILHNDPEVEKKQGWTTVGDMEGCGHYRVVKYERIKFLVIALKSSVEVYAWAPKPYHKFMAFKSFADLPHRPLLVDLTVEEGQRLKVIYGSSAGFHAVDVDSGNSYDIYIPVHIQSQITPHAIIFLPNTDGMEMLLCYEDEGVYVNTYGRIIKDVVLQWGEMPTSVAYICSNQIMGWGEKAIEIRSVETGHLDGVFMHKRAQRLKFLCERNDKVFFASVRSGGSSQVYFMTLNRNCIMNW
Chain of UniProt Q9BXA7 (whole entry, looked up): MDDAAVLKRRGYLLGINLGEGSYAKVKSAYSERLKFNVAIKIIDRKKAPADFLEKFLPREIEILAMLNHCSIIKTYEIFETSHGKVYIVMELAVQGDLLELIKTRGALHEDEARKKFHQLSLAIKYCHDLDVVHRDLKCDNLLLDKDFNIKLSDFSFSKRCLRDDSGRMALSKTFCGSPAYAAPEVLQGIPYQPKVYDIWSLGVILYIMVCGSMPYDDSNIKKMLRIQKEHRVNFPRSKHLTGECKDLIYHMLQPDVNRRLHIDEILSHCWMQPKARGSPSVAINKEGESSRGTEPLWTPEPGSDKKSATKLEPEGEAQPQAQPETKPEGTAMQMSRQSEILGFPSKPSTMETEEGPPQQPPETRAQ

Sample 1
Cell line: mouse MPNST tumor cells
Method: high-content nuclear imaging
Refers to: cell number
Concentration: 10 µM
Time: 12 h
Setting: mean of 2 replicates
Baseline: plate mean
Reading: higher = more cells
With `CCN1C(=O)NC(c2ccccc2)C1=O` (centres unmarked) the nuclei count was 0.173 z-score.
`CCN1CCN(C(=O)N[C@@H](C(=O)N[C@@H]2C(=O)N3[C@@H]2SC(C)(C)[C@@H]3C(=O)O)c2ccccc2)C(=O)C1=O` has a nuclei count of 1.85 z-score.
The nuclei count of `CCC(=O)OCC(=O)[C@@]1(OC(=O)CC)[C@H](C)C[C@H]2[C@H]3[C@H]([C@@H](O)C[C@@]21C)[C@@]1(C)C=CC(=O)C=C1C[C@H]3Cl` is reported as 3.68 z-score.
With `O=C(Nc1c(Cl)cncc1Cl)c1ccc(OC(F)F)c(OCC2CC2)c1` the nuclei count was -0.742 z-score.
For `CN1CCN(C(=O)c2ccc(-n3nc(-c4ccc(C(=O)O)cc4)cc3-c3cc(C(C)(C)C)cc(C(C)(C)C)c3)cc2)CC1`, the nuclei count was 5.35 z-score.
The nuclei count of `C=CCN(C)CCCCCCOc1ccc(C(=O)c2ccc(Br)cc2)c(F)c1` is reported as -4.93 z-score.
The nuclei count of `O=C(O)c1ccc2cc(-c3ccc(O)c(C45CC6CC(CC(C6)C4)C5)c3)ccc2c1` is reported as -4.68 z-score.
The nuclei count of `CCN(CC)CCOCCOC(=O)C(CC)(CC)c1ccccc1` is reported as 3.06 z-score.
`NS(=O)(=O)c1ccc(N2CCN(CC[C@@H]3OCCc4ccccc43)CC2)cc1` has a nuclei count of 4.37 z-score.
`COCC(=O)Nc1c(I)c(C(=O)NCC(O)CO)c(I)c(C(=O)N(C)CC(O)CO)c1I` (centres unmarked) gave a nuclei count of -0.63 z-score.
The nuclei count of `Cc1nn(-c2ccccc2)c(C)c1C=NN1CCN(Cc2ccccc2)CC1` is reported as 0.777 z-score.
The nuclei count of `CCCCNc1cc(C(=O)O)cc(S(N)(=O)=O)c1Oc1ccccc1` is reported as 1.68 z-score and 3.22 z-score and 0.766 z-score.
`O=C1C(Cl)=C(NCCN2CCOCC2)C(=O)c2ncccc21` gave a nuclei count of -5.12 z-score.

Sample 2
SMILES: COc1ccc2[nH]c3c4[nH]c5ccc(OC)cc5c4c4c(c3c2c1)C(=O)NC4=O
Concentration: 1 µM
The remaining binding was 100% (ACVR1B (Homo sapiens, UniProt P36896); competitive binding panel; baseline: vehicle).
The remaining binding was 35% (PRKCH (Homo sapiens, UniProt P24723); competitive binding panel; baseline: vehicle).
It gave 95% for remaining binding (PLK2 (Homo sapiens, UniProt Q9NYY3); competitive binding panel; baseline: vehicle).
EGFR (Homo sapiens, UniProt P00533, del752-759); competitive binding panel; baseline: vehicle — remaining binding: 68%.
For LIM domain kinase 2 (LIMK2, Homo sapiens, UniProt P53671); competitive binding panel; baseline: vehicle: remaining binding read 81%.
The remaining binding was 74% (CDK4 (Homo sapiens, UniProt P11802); competitive binding scan; added: cyclin D3).
MINK1 (Homo sapiens, UniProt Q8N4C8); competitive binding; MINK — remaining binding: 1.7%.
The remaining binding was 89% (CDC42BPB (Homo sapiens, UniProt Q9Y5S2); competitive binding; MRCKB).

Sample 3
SMILES: CC#CC(=O)N1CCC[C@H]1c1nc(-c2ccc(C(=O)Nc3ccccn3)cc2)c2c(N)nccn12
Read-out: enzyme activity
Mode: inhibitor
Concentration: 1 µM
FLT3 (Homo sapiens, UniProt P36888, ITD) — inhibition: 0%.
It gave 8% for inhibition (MAPKAPK5 (Homo sapiens, UniProt Q8IW41)).
Tyrosine-protein kinase JAK2, JH1 (JAK2, Homo sapiens, UniProt O60674) — inhibition: 5%.
The inhibition was 9% (Aurora kinase B (AURKB, Homo sapiens, UniProt Q96GD4)).
It gave 17% for inhibition (MAP2K7 (Homo sapiens, UniProt O14733)).
The inhibition was 1% (CSNK1E (Homo sapiens, UniProt P49674)).
For MAP4K1 (Homo sapiens, UniProt Q92918): inhibition read 0%.
ULK2 (Homo sapiens, UniProt Q8IYT8) — inhibition: 0%.
MET (Homo sapiens, UniProt P08581, M1250T) — inhibition: 0%.
The inhibition was 15% (FGR (Homo sapiens, UniProt P09769)).
It gave 2% for inhibition (MAPK6 (Homo sapiens, UniProt Q16659)).
TNK2 (Homo sapiens, UniProt Q07912) — inhibition: 31%.
The inhibition was 6% (PDGFRB (Homo sapiens, UniProt P09619)).

Sample 4
SMILES: C[C@@H]1CN(c2cc(-c3nn(C)c4ccc(OC5(C)CC5)cc34)ncn2)C[C@H](C)O1
Read-out: cell-free assay
Method: competition with immobilised ligand
Concentration: 1 µM
The remaining binding was 72% (MAPK15 (Homo sapiens, UniProt Q8TD08)).
The remaining binding was 100% (RIOK2 (Homo sapiens, UniProt Q9BVS4)).
It gave 100% for remaining binding (TLK1 (Homo sapiens, UniProt Q9UKI8)).
It gave 71% for remaining binding (NEK9 (Homo sapiens, UniProt Q8TD19)).
For CAMKK1 (Homo sapiens, UniProt Q8N5S9): remaining binding read 80%.
TSSK1B (Homo sapiens, UniProt Q9BXA7) — remaining binding: 99%.
The remaining binding was 100% (MAPK12 (Homo sapiens, UniProt P53778)).
The remaining binding was 75% (TBK1 (Homo sapiens, UniProt Q9UHD2)).
It gave 96% for remaining binding (GRK4 (Homo sapiens, UniProt P32298)).
The remaining binding was 74% (Tyrosine-protein kinase ABL1, phosphorylated (ABL1, Homo sapiens, UniProt P00519, T315I)).
For AXL (Homo sapiens, UniProt P30530): remaining binding read 100%.
The remaining binding was 100% (MAP3K10 (Homo sapiens, UniProt Q02779)).
The remaining binding was 100% (PDPK1 (Homo sapiens, UniProt O15530)).
It gave 100% for remaining binding (PIK3CA (Homo sapiens, UniProt P42336)).
For Cyclin-dependent kinase 4, with cyclin D1 (CDK4, Homo sapiens, UniProt P11802): remaining binding read 71%.
The remaining binding was 97% (EGFR (Homo sapiens, UniProt P00533)).
IRAK4 (Homo sapiens, UniProt Q9NWZ3) — remaining binding: 76%.
It gave 100% for remaining binding (PHKG2 (Homo sapiens, UniProt P15735)).
TIE1 (Homo sapiens, UniProt P35590) — remaining binding: 92%.
For Ribosomal protein S6 kinase alpha-1, N-terminal kinase domain (RPS6KA1, Homo sapiens, UniProt Q15418): remaining binding read 100%.
It gave 96% for remaining binding (ACVR1 (Homo sapiens, UniProt Q04771)).
The remaining binding was 100% (MAP4K4 (Homo sapiens, UniProt O95819)).
For Non-receptor tyrosine-protein kinase TYK2, JH2 (TYK2, Homo sapiens, UniProt P29597): remaining binding read 82%.
For EPHA3 (Homo sapiens, UniProt P29320): remaining binding read 68%.
It gave 86% for remaining binding (Tyrosine-protein kinase ABL1, phosphorylated (ABL1, Homo sapiens, UniProt P00519, F317L)).

A few entries again (sample 1):
With `CCN1C(=O)NC(c2ccccc2)C1=O` (centres unmarked) the nuclei count was 0.173 z-score.
`CCN1CCN(C(=O)N[C@@H](C(=O)N[C@@H]2C(=O)N3[C@@H]2SC(C)(C)[C@@H]3C(=O)O)c2ccccc2)C(=O)C1=O` has a nuclei count of 1.85 z-score.
The nuclei count of `CCC(=O)OCC(=O)[C@@]1(OC(=O)CC)[C@H](C)C[C@H]2[C@H]3[C@H]([C@@H](O)C[C@@]21C)[C@@]1(C)C=CC(=O)C=C1C[C@H]3Cl` is reported as 3.68 z-score.
With `O=C(Nc1c(Cl)cncc1Cl)c1ccc(OC(F)F)c(OCC2CC2)c1` the nuclei count was -0.742 z-score.
For `CN1CCN(C(=O)c2ccc(-n3nc(-c4ccc(C(=O)O)cc4)cc3-c3cc(C(C)(C)C)cc(C(C)(C)C)c3)cc2)CC1`, the nuclei count was 5.35 z-score.
